Results from different studies.
A part holds a random share of what one study measured. “And” joins repeats or separate records; there may be more than shown.
Sequence of UniProt P08581 (whole entry, looked up): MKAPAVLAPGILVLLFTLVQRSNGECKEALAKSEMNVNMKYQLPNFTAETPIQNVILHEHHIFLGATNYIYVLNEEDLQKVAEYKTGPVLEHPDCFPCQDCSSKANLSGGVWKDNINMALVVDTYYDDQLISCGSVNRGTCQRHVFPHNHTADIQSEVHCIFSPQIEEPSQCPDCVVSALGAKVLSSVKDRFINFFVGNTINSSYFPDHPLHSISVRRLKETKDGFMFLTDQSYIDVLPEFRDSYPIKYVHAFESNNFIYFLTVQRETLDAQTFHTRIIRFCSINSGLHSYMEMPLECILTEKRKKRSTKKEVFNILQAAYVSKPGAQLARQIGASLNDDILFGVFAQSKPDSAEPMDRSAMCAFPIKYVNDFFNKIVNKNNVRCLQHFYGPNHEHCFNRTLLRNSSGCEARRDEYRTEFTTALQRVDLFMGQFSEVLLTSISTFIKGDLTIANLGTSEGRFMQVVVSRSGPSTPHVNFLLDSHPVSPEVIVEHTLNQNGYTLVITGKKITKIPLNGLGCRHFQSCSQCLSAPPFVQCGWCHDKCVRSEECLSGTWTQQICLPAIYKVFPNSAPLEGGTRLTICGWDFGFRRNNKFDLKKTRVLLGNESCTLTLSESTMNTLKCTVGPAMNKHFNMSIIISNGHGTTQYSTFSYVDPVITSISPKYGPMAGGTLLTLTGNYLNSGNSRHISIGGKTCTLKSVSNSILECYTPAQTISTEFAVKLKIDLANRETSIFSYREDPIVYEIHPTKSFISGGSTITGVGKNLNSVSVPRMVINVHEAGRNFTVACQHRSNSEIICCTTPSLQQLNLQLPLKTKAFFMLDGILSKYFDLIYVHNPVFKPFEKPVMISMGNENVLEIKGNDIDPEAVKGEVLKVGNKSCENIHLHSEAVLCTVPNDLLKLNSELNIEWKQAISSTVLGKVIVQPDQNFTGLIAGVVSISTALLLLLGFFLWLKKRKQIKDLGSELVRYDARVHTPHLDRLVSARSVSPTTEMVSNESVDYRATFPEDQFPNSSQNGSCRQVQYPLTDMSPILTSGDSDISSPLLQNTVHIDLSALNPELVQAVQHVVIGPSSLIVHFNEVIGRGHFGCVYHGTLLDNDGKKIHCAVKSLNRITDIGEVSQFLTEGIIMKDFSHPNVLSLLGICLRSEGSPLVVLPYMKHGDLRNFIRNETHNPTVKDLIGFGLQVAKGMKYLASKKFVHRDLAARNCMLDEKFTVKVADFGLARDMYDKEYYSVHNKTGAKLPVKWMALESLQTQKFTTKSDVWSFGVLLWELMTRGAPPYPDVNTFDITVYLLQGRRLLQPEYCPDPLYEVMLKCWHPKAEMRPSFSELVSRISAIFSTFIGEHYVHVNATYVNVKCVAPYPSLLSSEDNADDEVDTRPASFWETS
Sequence of UniProt Q9H4B4 (whole entry, looked up): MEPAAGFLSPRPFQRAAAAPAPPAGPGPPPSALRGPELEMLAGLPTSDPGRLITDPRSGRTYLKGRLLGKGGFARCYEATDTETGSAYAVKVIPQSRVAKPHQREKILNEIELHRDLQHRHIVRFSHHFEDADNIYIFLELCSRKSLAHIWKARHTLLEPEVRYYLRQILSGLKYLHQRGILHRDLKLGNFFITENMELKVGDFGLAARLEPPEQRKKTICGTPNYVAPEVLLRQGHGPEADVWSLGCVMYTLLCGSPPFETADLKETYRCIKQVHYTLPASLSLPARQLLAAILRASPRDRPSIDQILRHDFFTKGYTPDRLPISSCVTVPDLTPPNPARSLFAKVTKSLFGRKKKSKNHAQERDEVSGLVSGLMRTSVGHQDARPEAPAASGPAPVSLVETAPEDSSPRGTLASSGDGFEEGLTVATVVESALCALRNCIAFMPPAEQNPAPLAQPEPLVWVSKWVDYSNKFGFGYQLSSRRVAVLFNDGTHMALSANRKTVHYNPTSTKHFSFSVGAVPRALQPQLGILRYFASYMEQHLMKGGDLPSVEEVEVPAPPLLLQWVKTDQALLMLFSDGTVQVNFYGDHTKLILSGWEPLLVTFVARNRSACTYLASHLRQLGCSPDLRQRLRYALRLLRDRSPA
Sequence of UniProt Q9Y5S2 (whole entry, looked up): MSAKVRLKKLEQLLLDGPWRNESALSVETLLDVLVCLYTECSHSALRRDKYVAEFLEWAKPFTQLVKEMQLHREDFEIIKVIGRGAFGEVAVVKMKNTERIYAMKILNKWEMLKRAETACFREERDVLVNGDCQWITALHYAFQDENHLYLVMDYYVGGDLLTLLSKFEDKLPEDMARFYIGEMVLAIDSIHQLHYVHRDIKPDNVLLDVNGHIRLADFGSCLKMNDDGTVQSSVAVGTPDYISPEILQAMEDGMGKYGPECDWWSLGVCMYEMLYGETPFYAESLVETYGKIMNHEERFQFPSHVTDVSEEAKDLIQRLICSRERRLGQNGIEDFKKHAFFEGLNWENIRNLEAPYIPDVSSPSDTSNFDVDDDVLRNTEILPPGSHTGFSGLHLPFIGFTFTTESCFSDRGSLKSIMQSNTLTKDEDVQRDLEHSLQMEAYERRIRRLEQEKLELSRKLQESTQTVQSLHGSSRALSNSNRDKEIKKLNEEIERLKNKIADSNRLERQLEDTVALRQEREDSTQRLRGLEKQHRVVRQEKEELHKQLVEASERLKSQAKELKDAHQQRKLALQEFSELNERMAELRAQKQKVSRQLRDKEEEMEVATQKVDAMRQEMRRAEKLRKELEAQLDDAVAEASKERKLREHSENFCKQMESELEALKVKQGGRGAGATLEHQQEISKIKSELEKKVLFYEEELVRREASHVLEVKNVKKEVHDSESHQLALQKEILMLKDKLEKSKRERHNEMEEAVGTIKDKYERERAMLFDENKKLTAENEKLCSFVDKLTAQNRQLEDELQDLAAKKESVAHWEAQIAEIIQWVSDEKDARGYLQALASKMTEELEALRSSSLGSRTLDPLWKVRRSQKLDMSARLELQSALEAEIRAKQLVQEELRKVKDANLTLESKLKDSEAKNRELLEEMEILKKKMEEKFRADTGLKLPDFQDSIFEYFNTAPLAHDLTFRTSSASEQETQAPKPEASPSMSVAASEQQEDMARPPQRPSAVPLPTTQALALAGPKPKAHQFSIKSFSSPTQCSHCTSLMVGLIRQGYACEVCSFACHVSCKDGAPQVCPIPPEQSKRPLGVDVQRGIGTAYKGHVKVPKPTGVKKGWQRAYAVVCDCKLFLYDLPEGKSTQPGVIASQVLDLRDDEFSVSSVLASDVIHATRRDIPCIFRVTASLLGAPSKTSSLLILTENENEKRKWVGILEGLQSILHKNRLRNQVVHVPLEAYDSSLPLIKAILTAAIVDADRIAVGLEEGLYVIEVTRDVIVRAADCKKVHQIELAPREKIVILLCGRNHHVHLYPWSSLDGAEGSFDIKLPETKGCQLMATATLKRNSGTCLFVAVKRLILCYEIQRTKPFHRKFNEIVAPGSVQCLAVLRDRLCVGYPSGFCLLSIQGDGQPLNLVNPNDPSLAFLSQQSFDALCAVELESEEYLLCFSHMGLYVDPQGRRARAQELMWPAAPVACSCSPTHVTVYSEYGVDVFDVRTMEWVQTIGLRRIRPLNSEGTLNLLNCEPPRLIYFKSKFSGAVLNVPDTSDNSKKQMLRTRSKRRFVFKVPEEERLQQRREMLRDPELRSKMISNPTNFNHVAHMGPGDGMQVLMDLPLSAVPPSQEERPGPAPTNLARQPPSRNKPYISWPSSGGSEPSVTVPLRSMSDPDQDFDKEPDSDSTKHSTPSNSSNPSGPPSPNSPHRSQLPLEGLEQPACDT
Sequence of UniProt Q6P2M8 (whole entry, looked up): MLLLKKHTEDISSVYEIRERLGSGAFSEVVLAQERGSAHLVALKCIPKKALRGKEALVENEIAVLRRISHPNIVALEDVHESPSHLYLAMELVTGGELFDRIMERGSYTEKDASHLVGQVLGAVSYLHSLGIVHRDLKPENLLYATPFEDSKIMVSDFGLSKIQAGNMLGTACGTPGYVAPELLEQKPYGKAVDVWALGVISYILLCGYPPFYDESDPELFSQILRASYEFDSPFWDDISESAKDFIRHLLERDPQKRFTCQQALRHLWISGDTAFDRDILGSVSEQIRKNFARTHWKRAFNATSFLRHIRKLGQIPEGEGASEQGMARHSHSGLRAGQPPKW
Sequence of UniProt P50750 (whole entry, looked up): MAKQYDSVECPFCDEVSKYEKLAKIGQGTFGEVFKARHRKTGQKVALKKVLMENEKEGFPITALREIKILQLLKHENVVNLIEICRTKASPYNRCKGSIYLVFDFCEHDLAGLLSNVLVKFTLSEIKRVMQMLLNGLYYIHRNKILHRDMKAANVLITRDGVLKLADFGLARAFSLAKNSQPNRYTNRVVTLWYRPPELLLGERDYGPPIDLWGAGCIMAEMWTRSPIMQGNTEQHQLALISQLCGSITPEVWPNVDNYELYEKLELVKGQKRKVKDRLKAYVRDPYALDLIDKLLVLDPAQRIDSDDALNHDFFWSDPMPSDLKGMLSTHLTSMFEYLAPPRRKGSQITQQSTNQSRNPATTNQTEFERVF

Set 1
Compound: N#CC(=C(N)Sc1ccc(N)cc1)c1ccccc1C(F)(F)F
Observed: enzyme activity
Mode: inhibitor
Concentration: 0.5 µM
Baseline: control
| target | remaining activity |
| --- | --- |
| PLK3 (Homo sapiens, UniProt Q9H4B4) | 96.9% |
| CLK3 (Homo sapiens, UniProt P49761) | 103% |
| PNCK (Homo sapiens, UniProt Q6P2M8) | 98.9% |
| ROCK1 (Homo sapiens, UniProt Q13464) | 104% |
| Cyclin-dependent kinase 9, with cyclin K (CDK9, Homo sapiens, UniProt P50750) | 98% |
| MET (Homo sapiens, UniProt P08581) | 77.2% |
| MAP2K1 (Homo sapiens, UniProt Q02750) | 97.9% |
| PAK3 (Homo sapiens, UniProt O75914) | 99.2% |
| Myosin-IIIb (MYO3B, Homo sapiens, UniProt Q8WXR4) | 98.3% |
| MAPK1 (Homo sapiens, UniProt P28482) | 86% |
| MAPK14 (Homo sapiens, UniProt Q16539) | 96% |
| DDR2 (Homo sapiens, UniProt Q16832) | 102% |
| CDC42BPB (Homo sapiens, UniProt Q9Y5S2) | 104% |
| MINK1 (Homo sapiens, UniProt Q8N4C8) | 104% |

Set 2
Cell line: A-375
Concentration: 100 µM
Time: 36 h
| Compound | viability |
| --- | --- |
| CN(C)c1nc(N(C)C)nc(N(C)C)n1 | 99% |
| CC(CCc1ccc(O)cc1)NCC(O)c1ccc(O)cc1 (stereo not shown) | 115% |
| O=C(O)CCCNC(=O)c1cccnc1 | 103% |
| CN(C)CC/C=C1/c2ccccc2COc2ccc(CC(=O)O)cc21 | 107% |
| O=C(O)CN(CCN(CC(=O)O)CC(=O)O)CC(=O)O | 91.8% |
| CN(Cc1cnc2nc(N)nc(N)c2n1)c1ccc(C(=O)N[C@@H](CCC(=O)O)C(=O)O)cc1 | 47.3% |

Set 3
Target: Beta-1 adrenergic receptor (ADRB1, Homo sapiens, UniProt P08588)
Sequence of UniProt P08588 (whole entry, looked up): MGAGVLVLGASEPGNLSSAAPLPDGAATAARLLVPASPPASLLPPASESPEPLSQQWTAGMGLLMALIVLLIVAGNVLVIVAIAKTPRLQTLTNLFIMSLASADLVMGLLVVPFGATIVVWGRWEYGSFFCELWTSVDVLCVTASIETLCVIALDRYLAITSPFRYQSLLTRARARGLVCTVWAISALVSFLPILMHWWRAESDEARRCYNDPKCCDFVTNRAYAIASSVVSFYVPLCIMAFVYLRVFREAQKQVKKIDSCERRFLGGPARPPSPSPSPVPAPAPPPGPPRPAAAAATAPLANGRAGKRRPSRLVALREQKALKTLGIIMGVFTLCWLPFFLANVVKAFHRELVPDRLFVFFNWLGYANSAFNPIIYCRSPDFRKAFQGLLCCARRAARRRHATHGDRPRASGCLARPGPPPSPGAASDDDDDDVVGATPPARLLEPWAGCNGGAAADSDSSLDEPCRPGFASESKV
Mode: agonist
| SMILES | EC50 [µM] |
| --- | --- |
| Cc1cc(NCCc2cnccn2)nc(-c2ccccc2O)n1 | ≥ 100 |
| O=[S+]([O-])(N[C@H]1CO[C@H]2[C@@H]1OC[C@@H]2n1nnnc1Oc1cccc(N2CCOCC2)c1)c1cccs1 | ≥ 100 |
| Cn1cc(-c2cc(=O)c3ccnc(NC4CCOCC4)c3o2)cn1 | ≥ 100 |
| O=C(Nc1ccc([C@@H](O)[C@H]2COCC(=O)N2CCCc2ccccc2)cc1)c1cnccn1 | ≥ 100 |
| COc1ccc(CN2CCOc3nc(-c4cn[nH]c4)ncc3C2=O)cc1 | ≥ 100 |
| Cc1ccsc1-c1n[nH]c2ncc(-c3ccc(F)cc3)nc12 | ≥ 100 |

Set 4
Cell line: normal organoid sample H
Method: CellTiter-Glo
Host: human
Matrix: normal-adjacent epithelium
Concentration: 1 µM
Baseline: DMSO
| SMILES | viability |
| --- | --- |
| Cc1nc(C2CCN(C(=O)c3ccc(OC(F)(F)F)cc3N)CC2)c2ncc(N3CCN(C)CC3)cc2n1 | 123% and 121% |
| Cn1cc(Cl)c2c(Oc3c(F)cc(Nc4cc(Cl)nc(N)n4)cc3F)ccnc21 | 118% and 93% |
| O=C(O)c1cc(-c2ccc(C3CCNCC3)cc2)c2ccc(-c3ccc(C(F)(F)F)cc3)cc2c1 | 112% and 102% |
| C[C@@H](c1cccc(C#N)c1)n1cc(Cl)cc(C(N)=O)c1=N | 110% and 104% |
| CC(C)(O)c1cncc(-c2nc3ccc(F)cc3n2C2CC2)c1 | 84.8% |
| CCS(=O)(=O)c1cc2cc(C[C@](O)(CC(C)(C)c3ccc(F)cc3C(N)=O)C(F)(F)F)[nH]c2cn1 | 93.1% |
| CNCc1ccccc1-c1csc([C@@H](C)Nc2nc(C)nc3cc(OC)c(OC)cc23)c1 | 64.5% |
| CN1CCN(C(=O)C(C)(C)c2ccc(C(=O)Nc3cn4cc(-c5cc(C(C)(C)C)cc(C(C)(C)C)c5)ccc4n3)cc2)CC1 | 69.4% |

Excerpt of the above (set 1):
| target | remaining activity |
| --- | --- |
| PNCK (Homo sapiens, UniProt Q6P2M8) | 98.9% |
| ROCK1 (Homo sapiens, UniProt Q13464) | 104% |
| MET (Homo sapiens, UniProt P08581) | 77.2% |
